Assay results gathered from unrelated publications.
Values joined by “and” are separate records of one study, mostly repeats; a detail may differ. Numbers after ± are the reported error.
G-protein coupled receptor 39: G-protein coupled receptor 39 (Mus musculus, UniProt Q5U431)
UniProt Q5U431, sequence (whole entry, looked up): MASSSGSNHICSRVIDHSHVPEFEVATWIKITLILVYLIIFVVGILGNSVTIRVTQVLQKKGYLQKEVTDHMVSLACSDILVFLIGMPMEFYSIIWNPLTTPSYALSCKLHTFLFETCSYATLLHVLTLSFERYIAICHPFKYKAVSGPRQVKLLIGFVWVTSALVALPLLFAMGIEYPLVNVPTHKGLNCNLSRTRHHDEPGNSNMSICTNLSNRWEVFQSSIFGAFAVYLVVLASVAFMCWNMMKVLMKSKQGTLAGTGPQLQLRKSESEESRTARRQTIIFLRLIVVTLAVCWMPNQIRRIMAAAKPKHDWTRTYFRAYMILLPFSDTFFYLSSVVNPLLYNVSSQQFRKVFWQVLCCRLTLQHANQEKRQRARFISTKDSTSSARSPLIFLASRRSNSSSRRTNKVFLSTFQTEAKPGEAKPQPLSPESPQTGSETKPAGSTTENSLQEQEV
NPBWR1: Neuropeptides B/W receptor type 1 (NPBWR1, Homo sapiens, UniProt P48145)
UniProt P48145, sequence (whole entry, looked up): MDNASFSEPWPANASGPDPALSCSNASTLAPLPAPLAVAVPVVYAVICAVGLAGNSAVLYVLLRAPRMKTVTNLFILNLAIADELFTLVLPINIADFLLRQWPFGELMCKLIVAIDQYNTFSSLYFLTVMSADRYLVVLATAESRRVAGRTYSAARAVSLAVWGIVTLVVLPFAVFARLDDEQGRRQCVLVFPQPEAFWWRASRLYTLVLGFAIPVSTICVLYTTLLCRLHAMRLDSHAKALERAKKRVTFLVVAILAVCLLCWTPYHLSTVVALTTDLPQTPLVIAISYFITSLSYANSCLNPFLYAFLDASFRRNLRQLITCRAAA
Kir3.1/Kir3.2: Kir3.1/Kir3.2 (Homo sapiens, UniProt P48051+P48549)
UniProt P48051, sequence (whole entry, looked up): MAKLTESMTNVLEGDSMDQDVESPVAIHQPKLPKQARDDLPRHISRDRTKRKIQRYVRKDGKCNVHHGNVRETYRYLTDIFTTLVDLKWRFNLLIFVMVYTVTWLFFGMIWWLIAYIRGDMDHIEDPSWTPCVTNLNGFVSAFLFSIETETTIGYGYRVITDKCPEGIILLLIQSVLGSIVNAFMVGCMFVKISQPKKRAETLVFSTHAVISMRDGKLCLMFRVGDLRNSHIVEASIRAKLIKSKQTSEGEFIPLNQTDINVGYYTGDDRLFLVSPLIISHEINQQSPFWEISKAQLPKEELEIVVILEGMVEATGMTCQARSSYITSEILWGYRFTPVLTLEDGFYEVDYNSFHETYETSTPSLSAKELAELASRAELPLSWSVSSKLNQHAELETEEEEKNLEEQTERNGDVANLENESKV
UniProt P48549, sequence (whole entry, looked up): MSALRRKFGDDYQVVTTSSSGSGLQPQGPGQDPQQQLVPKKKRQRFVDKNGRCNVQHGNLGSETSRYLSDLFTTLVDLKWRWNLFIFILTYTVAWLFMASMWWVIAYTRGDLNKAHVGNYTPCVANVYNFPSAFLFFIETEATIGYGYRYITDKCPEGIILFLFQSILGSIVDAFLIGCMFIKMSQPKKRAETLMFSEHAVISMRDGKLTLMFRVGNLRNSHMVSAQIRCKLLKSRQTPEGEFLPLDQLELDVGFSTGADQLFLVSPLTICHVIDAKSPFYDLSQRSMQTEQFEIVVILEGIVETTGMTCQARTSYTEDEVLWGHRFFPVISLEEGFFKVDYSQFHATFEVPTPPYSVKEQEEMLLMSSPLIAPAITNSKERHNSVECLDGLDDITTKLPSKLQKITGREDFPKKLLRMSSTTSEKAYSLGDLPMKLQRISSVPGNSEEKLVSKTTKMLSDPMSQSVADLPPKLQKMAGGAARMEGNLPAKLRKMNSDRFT
GPBAR1: G-protein coupled bile acid receptor 1 (GPBAR1, Homo sapiens, UniProt Q8TDU6)
UniProt Q8TDU6, sequence (whole entry, looked up): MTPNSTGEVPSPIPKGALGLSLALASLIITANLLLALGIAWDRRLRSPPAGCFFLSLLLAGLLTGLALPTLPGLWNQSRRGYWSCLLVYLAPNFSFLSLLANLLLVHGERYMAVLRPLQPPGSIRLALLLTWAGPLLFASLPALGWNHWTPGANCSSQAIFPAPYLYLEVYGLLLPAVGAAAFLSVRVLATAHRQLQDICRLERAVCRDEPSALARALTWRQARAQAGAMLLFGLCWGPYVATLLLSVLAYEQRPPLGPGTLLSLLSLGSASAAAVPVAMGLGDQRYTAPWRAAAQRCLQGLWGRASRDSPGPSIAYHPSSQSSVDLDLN
CXCL8: Interleukin-8 (CXCL8, Homo sapiens, UniProt P10145)
UniProt P10145, sequence (whole entry, looked up): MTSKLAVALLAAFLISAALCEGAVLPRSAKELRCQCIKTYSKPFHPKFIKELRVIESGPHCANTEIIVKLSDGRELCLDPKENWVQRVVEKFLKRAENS
CXCL12: Stromal cell-derived factor 1 (CXCL12, Homo sapiens, UniProt P48061)
UniProt P46089, sequence (whole entry, unmodified, looked up): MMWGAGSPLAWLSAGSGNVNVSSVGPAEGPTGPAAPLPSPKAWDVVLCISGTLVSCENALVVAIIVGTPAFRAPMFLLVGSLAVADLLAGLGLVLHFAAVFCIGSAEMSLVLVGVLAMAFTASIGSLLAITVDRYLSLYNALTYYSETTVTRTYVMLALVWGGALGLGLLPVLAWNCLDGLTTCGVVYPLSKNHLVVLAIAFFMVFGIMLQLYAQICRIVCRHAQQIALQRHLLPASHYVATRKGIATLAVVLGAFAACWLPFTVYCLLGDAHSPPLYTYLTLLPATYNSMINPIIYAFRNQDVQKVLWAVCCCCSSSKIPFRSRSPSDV
UniProt P48061, sequence (whole entry, looked up): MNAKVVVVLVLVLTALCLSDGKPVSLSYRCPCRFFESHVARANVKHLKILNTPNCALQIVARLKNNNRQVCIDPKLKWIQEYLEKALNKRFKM
UniProt Q9JJ73, sequence (whole entry, looked up): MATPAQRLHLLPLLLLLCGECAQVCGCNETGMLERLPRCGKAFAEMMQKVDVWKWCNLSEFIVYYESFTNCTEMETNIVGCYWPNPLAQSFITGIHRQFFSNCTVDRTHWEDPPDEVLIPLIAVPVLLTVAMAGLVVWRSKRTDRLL
UniProt P43220, sequence (whole entry, unmodified, looked up): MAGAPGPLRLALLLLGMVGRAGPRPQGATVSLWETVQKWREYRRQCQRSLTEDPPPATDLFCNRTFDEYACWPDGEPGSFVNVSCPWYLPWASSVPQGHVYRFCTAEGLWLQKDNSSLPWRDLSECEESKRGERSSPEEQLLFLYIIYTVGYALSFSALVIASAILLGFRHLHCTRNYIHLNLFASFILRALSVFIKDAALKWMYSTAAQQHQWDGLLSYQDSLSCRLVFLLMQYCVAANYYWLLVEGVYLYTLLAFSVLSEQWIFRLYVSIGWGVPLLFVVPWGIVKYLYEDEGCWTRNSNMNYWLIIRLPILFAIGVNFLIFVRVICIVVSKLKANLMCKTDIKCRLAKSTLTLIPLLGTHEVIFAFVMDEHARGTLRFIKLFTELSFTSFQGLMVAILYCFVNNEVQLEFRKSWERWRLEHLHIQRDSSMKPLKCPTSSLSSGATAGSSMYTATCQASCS
UniProt P08172, sequence (whole entry, looked up): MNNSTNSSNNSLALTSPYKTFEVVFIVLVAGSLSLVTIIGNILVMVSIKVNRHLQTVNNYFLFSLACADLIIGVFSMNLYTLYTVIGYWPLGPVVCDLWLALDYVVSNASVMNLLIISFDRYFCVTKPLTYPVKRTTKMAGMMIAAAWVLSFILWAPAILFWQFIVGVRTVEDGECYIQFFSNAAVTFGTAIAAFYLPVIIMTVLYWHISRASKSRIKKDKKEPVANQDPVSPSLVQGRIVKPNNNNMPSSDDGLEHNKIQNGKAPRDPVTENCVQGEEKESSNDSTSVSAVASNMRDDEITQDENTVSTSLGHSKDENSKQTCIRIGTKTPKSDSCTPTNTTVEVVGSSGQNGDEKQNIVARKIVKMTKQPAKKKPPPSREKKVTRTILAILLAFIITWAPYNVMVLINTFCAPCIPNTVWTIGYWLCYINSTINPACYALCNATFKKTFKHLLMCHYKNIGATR
UniProt Q2G036, sequence (whole entry, looked up): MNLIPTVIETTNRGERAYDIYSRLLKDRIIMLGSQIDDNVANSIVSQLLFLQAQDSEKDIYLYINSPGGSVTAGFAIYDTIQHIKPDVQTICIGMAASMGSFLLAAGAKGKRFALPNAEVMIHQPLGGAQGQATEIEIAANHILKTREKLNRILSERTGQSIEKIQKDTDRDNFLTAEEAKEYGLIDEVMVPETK
UniProt Q92847, sequence (whole entry, looked up): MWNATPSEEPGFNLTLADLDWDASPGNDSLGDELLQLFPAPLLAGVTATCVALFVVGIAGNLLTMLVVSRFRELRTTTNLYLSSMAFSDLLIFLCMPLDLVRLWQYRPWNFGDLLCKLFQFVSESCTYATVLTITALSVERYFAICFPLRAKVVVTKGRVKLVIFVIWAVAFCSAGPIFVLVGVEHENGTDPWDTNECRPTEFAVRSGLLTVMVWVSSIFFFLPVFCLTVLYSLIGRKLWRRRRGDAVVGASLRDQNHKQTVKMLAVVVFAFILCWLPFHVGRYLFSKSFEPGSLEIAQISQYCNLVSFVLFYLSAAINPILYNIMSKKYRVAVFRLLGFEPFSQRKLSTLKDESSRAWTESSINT
UniProt Q9Y653, sequence (whole entry, unmodified, looked up): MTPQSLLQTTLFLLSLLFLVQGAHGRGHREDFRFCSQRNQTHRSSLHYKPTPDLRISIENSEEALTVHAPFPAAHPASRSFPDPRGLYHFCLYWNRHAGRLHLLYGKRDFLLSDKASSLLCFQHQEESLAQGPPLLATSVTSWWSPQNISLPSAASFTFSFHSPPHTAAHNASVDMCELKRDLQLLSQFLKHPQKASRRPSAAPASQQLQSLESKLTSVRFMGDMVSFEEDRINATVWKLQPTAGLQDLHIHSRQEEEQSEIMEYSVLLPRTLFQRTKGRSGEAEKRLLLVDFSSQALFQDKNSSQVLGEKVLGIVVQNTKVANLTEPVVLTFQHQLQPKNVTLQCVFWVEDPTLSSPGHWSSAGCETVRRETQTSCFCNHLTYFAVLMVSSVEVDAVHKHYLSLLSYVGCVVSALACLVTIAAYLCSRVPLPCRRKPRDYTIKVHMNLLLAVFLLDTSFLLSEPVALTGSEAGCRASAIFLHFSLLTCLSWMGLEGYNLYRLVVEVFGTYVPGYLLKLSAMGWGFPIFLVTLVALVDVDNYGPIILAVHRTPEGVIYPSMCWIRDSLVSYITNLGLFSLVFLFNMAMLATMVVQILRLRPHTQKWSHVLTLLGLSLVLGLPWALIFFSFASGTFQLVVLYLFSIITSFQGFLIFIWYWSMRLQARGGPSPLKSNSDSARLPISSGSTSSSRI

With `CC(C)(C(=O)N1CCC(Nc2nc3c(c(=O)[nH]2)CCCC3)CC1)c1ccc(Cl)cc1` the EC50 was 3600 nM (SSTR4 (Homo sapiens, UniProt P31391); β-arrestin recruitment, agonist).
With `CC1=NC(C)C(C)S1` (centres unmarked) the EC50 was 441000 ± 31200 nM (uncharacterized protein (Puma concolor, UniProt A0A6P6H1F7); cAMP, agonist; HEK293 transfected with uncharacterized protein).
`CC(CCC(=O)NCC(=O)O)C1CCC2C3CCC4CC(O)CCC4(C)C3CC(O)C12C` (centres unmarked) has an EC50 of over 200000 nM (G-protein coupled receptor 39; calcium signal, agonist, fluorescence).
`Nc1ncnc2c1ncn2[C@@H]1O[C@H](COP(=O)(O)OP(=O)(O)OC[C@H]2OC(O)[C@H](O)[C@@H]2O)[C@@H](O)[C@H]1OP(=O)(O)O` (some centres unmarked) has an EC50 of 46000 ± 3000 nM (TRPM2 (Nematostella vectensis, UniProt A7T1N0, K147A); agonist).
`Cn1c(=O)n(C2CCC(=O)NC2=O)c2ccc(C3CCN(CC(=O)Nc4cccc(CS(=O)(=O)N5CC[C@H](Nc6cccc(-c7sc(C(=O)O)c(OCC(=O)O)c7Cl)c6)CC5(C)C)c4)CC3)cc21` (some centres unmarked) gave an EC50 of over 10000 nM (PTPRC (Homo sapiens, UniProt P08575); phosphatase activity; with: DiFMUP substrate).
With `CC(C)C[C@H](NC(=O)[C@H](CC(C)C)NC(=O)CNC(=O)[C@H](C)NC(=O)[C@@H](C)NC(=O)[C@H](CCCNC(=N)N)NC(=O)CNC(=O)CCCCNC(=O)CCCCNC(=O)CCCCNC(=O)[C@H](CCCCN)NC(=O)[C@H](Cc1ccc(O)cc1)NC(=O)[C@@H](N)Cc1c[nH]c2ccccc12)C(N)=O` the EC50 was 578 nM (NPBWR1; calcium signal, agonist).
For `CC(C)C[C@H](NC(=O)[C@H](Cc1ccccc1)NC(=O)[C@H](CCCNC(=N)N)NC(=O)[C@H](CCC(N)=O)NC(=O)[C@H](CC(C)C)NC(=O)C(C)(C)NC(=O)[C@H](C)NC(=O)[C@H](CCC(=O)O)NC(=O)[C@H](CCC(=O)O)NC(=O)[C@H](CCCCNC(=O)COCCOCCNC(=O)COCCOCCNC(=O)CC[C@H](NC(=O)CCCCCCCCCCCCCCCCCCC(=O)O)C(=O)O)NC(=O)[C@H](CC(C)C)NC(=O)[C@H](Cc1ccc(O)cc1)NC(=O)[C@H](CO)NC(=O)[C@@H](NC(=O)[C@H](CC(=O)O)NC(=O)[C@H](CO)NC(=O)[C@@H](NC(=O)[C@H](Cc1ccccc1)NC(=O)[C@@H](NC(=O)CNC(=O)[C@H](CCC(=O)O)NC(=O)C(C)(C)NC(=O)[C@@H](N)Cc1c[nH]cn1)[C@@H](C)O)[C@@H](C)O)C(C)C)C(=O)N[C@@H](CCC(=O)O)C(=O)N[C@@H](Cc1c[nH]cn1)C(=O)N[C@@H](CC(C)C)C(=O)N[C@H](C(N)=O)C(C)C`, the EC50 was over 5000 nM (GIPR (Homo sapiens, UniProt P48546); agonist; cross-reactivity).
`CC[C@H](C)[C@H]1C(=O)N(Cc2cc3ccccc3c3ccccc23)C[C@@H]2N(C(=O)NCCCC(F)(F)F)CCC(=O)N12` gave an EC50 of 1300 nM (clpP (Staphylococcus aureus, UniProt Q2G036); activator).
`O=C(COc1ccc(C(F)(F)F)cc1C(F)(F)F)Nc1cc(C2CCC2)nn1CC(F)(F)F` has an EC50 of 3000 nM (Kir3.1/Kir3.2; activator, thallium flux; HEK293).
The EC50 of `CC1=C(C(=O)OC2CCCC2)C(c2ccccc2C)C2=C(CC(C)(C)CC2=O)N1` (centres unmarked) is reported as 2150 ± 33 nM (ADGRG1 (Homo sapiens, UniProt Q9Y653); G13 activation, agonist, GTPγS binding, reconstitution).
With `CC(CCC(=O)NCCS(=O)(=O)O)C1CCC2C3CCC4CC(OS(=O)(=O)O)CCC4(C)C3CCC12C` (centres unmarked) the EC50 was 99500 ± 24100 nM (GPBAR1; agonist).
With `CC(C)Oc1cc(Cl)ccc1CNc1cc(-c2ccccc2)nc2ncnn12` the EC50 was 479 nM and 204 nM and 550 nM and 501 nM and 589 nM (GPR3 (Homo sapiens, UniProt P46089, Q215A); cAMP level, agonist, GloSensor; receptor Q215A mutant).
The EC50 of `CC(CCC(=O)NCCS(=O)(=O)O)C1CCC2C3C(O)CC4CC(OS(=O)(=O)O)CCC4(C)C3CCC12C` (centres unmarked) is reported as over 200000 nM (G-protein coupled receptor 39; calcium signal, agonist, fluorescence).
`O=C(COc1cc(Cl)ccc1Cl)Nc1cc(C2CC2)nn1C1CCOCC1` has an EC50 of 249 nM (Kir3.1/Kir3.2; activator, thallium flux; HEK293).
For `CC(=O)N[C@@H]1[C@@H](O[C@@H]2O[C@H](C(=O)O)[C@@H](O[C@@H]3O[C@H](CO)[C@@H](O)[C@H](O[C@@H]4O[C@H](C(=O)O)[C@@H](OS(=O)(=O)O)[C@H](OS(=O)(=O)O)[C@H]4OS(=O)(=O)O)[C@H]3NC(C)=O)[C@H](OS(=O)(=O)O)[C@H]2OS(=O)(=O)O)[C@H](O)[C@@H](CO)O[C@H]1N=[N+]=[N-]`, the EC50 was 140000 ± 37300 nM (CXCL8; probe displacement, FP competition; protein 800 nM, with: TAMRA-labelled sHA tetramer probe).
`CC(CCC(=O)NCCS(=O)(=O)O)C1CCC2C3CCC4CC(O)CCC4(C)C3CC(O)C12C` (centres unmarked) gave an EC50 of over 200000 nM (G-protein coupled receptor 39; calcium signal, agonist, fluorescence).
`CC(C)C[C@H](NC(=O)CNC(=O)[C@H](C)NC(=O)[C@H](C)NC(=O)[C@H](C)NC(=O)CNC(=O)CCCCNC(=O)CCCCNC(=O)CCCCNC(=O)[C@H](CCCCN)NC(=O)[C@H](Cc1ccc(O)cc1)NC(=O)[C@@H](N)Cc1c[nH]c2ccccc12)C(=O)N[C@@H](CC(C)C)C(=O)N[C@@H](CO)C(N)=O` gave an EC50 of over 10000 nM (NPBWR1; calcium signal, agonist).
`CC(C)C[C@H](NC(=O)[C@H](CCCN)NC(=O)CNC(=O)[C@@H](NC(=O)[C@H](C)NC(=O)[C@@H]1CSCSC[C@H](NC(=O)CC[C@H](N)C(=O)O)C(=O)N[C@@H](CC(N)=O)C(=O)N[C@@H]([C@@H](C)O)C(=O)N[C@@H](C)C(=O)N[C@@H]([C@@H](C)O)C(=O)N1)[C@@H](C)O)C(=O)N[C@@H](C)C(=O)N[C@@H](CCC(=O)O)C(=O)N[C@@](C)(Cc1ccccc1)C(=O)N[C@@H](CC(C)C)C(=O)N[C@H](C(=O)N[C@@H](CCCNC(=N)N)C(=O)N[C@@H](CO)C(=O)N[C@@H](CO)C(=O)N[C@@H](CC(N)=O)C(=O)N(C)[C@@H](CC(N)=O)C(=O)N[C@@H](Cc1ccccc1)C(=O)NCC(=O)N1CCC[C@H]1C(=O)N[C@@H](CCCCNC(=O)CC[C@H](NC(=O)CC[C@H](NC(=O)CCCCCCCCCCCCCCCCCCC(=O)O)C(=O)O)C(=O)O)C(=O)N[C@@H](CC(C)C)C(=O)N1CCC[C@H]1C(=O)N1CCC[C@H]1C(=O)N[C@H](C(=O)N[C@@H](CCC(=O)O)C(=O)N[C@H](C(=O)NCC(=O)N[C@@H](CO)C(=O)N[C@@H](CC(N)=O)C(=O)N[C@H](C(=O)N[C@@H](Cc1ccc(O)cc1)C(N)=O)[C@@H](C)O)C(C)C)[C@@H](C)O)C(C)C` has an EC50 of 0.0138 nM (Amylin receptor AMY3; CALCR/RAMP3 (Rattus norvegicus, UniProt P32214+Q9JJ73); cAMP, agonist, TR-FRET).
For `COC1CN([C@H]2CC[C@H]([C@@]3(C)Oc4c(Cl)cc(C(=O)NCc5c(SC)cc(C)[nH]c5=O)c(C)c4O3)CC2)C1`, “log2 fold change” read 0.0327 (RNA-seq, item: RGS2 mouse homolog; mouse, HT-1376 xenograft, whole blood; dose not given; baseline: vehicle).
The EC50 of `O=C(Cc1ccc(OCc2ccccc2)cc1)NC1(C(=O)O)CCN(C(=O)c2ccc(-c3cccc(Cl)c3)cc2)CC1` is reported as over 10000 nM (CHRM2 (Homo sapiens, UniProt P08172); cAMP, agonist, luciferase).
With `CC(=O)N[C@@H]1[C@@H](O[C@@H]2O[C@H](C(=O)O)[C@@H](O[C@@H]3O[C@H](COS(=O)(=O)O)[C@@H](OS(=O)(=O)O)[C@H](O[C@@H]4O[C@H](C(=O)O)[C@@H](OS(=O)(=O)O)[C@H](OS(=O)(=O)O)[C@H]4OS(=O)(=O)O)[C@H]3NC(C)=O)[C@H](OS(=O)(=O)O)[C@H]2OS(=O)(=O)O)[C@H](OS(=O)(=O)O)[C@@H](COS(=O)(=O)O)O[C@H]1N=[N+]=[N-]` the EC50 was 22700 ± 4300 nM (CXCL12; probe displacement, FP competition; protein 388 nM, with: TAMRA-labelled sHA tetramer probe).
For `COc1cc(C2C(NC(=O)c3ccc(NC(=O)OC(C)(C)C)cc3)(C(=O)O)C(c3ccc(OC(=O)c4cccs4)c(OC)c3)C2(NC(=O)c2ccc(NC(=O)OC(C)(C)C)cc2)C(=O)O)ccc1OC(=O)c1cccs1` (centres unmarked), the EC50 was 33.1 nM (GLP1R (Homo sapiens, UniProt P43220, T298A); cAMP, agonist).
For `COc1ccc(OC[C@H]2c3cccn3CC(=O)N2Cc2cccc(F)c2)cc1`, the EC50 was 1600 nM (Grin2a/Grin2c (Rattus norvegicus, UniProt Q00959+Q00961); activator; cells).
With `CC(C)C[C@H](NC(=O)[C@H](CC(C)C)NC(=O)CNC(=O)[C@H](C)NC(=O)[C@H](C)NC(=O)[C@H](CCCNC(=N)N)NC(=O)CNC(=O)CCCCNC(=O)CCCCNC(=O)CCCCNC(=O)[C@H](CCCCN)NC(=O)[C@H](Cc1ccc(O)cc1)NC(=O)[C@@H](N)Cc1cn(C)c2ccccc12)C(N)=O` the EC50 was over 10000 nM (NPBWR1; calcium signal, agonist).
The EC50 of `CC(CCC(=O)NCC(=O)O)C1CCC2C3C(O)CC4CC(O)CCC4(C)C3CCC12C` (centres unmarked) is reported as 6300 ± 2500 nM (GPBAR1; agonist).
With `COc1ccc(C(=O)c2c(C(=O)NCCCN(C)C)oc3ccc(Cl)cc3c2=O)cc1OC` the EC50 was 1580 nM (GHSR (Homo sapiens, UniProt Q92847); Gαi1 dissociation, agonist, TRUPATH BRET; HEK293T).
`C[C@H](CCC(=O)NCC(=O)O)[C@H]1CC[C@H]2[C@@H]3CC[C@@H]4C[C@H](OS(=O)(=O)O)CC[C@]4(C)[C@H]3CC[C@]12C` has an EC50 of over 200000 nM (GPBAR1; agonist).
`C=CC(=O)Nc1cccc(Cn2ncc3cnc(Nc4cnn(CCOC)c4)nc32)c1`: “percent of control” 100% (EPHA7 human; binding, KINOMEscan; 100 nM; lower = stronger binding).
For `CC(=O)N[C@@H]1[C@@H](O[C@@H]2O[C@H](C(=O)O)[C@@H](O[C@@H]3O[C@H](COS(=O)(=O)O)[C@@H](OS(=O)(=O)O)[C@H](O[C@@H]4O[C@H](C(=O)O)[C@@H](O[C@@H]5O[C@H](COS(=O)(=O)O)[C@@H](OS(=O)(=O)O)[C@H](O[C@@H]6O[C@H](C(=O)O)[C@@H](OS(=O)(=O)O)[C@H](OS(=O)(=O)O)[C@H]6OS(=O)(=O)O)[C@H]5NC(C)=O)[C@H](OS(=O)(=O)O)[C@H]4OS(=O)(=O)O)[C@H]3NC(C)=O)[C@H](OS(=O)(=O)O)[C@H]2OS(=O)(=O)O)[C@H](OS(=O)(=O)O)[C@@H](COS(=O)(=O)O)O[C@H]1N=[N+]=[N-]`, the EC50 was 119 ± 24 nM (CXCL12; binding, fluorescence polarization competition; CXCL12 60 nM, 80% DW, with: TAMRA probe).
For `CC(CCC(=O)NCC(=O)O)C1CCC2C3CCC4CC(OS(=O)(=O)O)CCC4(C)C3CC(O)C12C` (centres unmarked), the EC50 was over 200000 nM (GPBAR1; agonist).
`CC(=O)N[C@@H]1[C@@H](O[C@@H]2O[C@H](C(=O)O)[C@@H](O[C@@H]3O[C@H](CO)[C@@H](OS(=O)(=O)O)[C@H](O[C@@H]4O[C@H](C(=O)O)[C@@H](OS(=O)(=O)O)[C@H](OS(=O)(=O)O)[C@H]4OS(=O)(=O)O)[C@H]3NC(C)=O)[C@H](OS(=O)(=O)O)[C@H]2OS(=O)(=O)O)[C@H](OS(=O)(=O)O)[C@@H](CO)O[C@H]1N=[N+]=[N-]` has an EC50 of 27100 ± 2500 nM (CXCL8; probe displacement, FP competition; protein 800 nM, with: TAMRA-labelled sHA tetramer probe).
The EC50 of `CC(CCC(=O)NCCS(=O)(=O)O)C1CCC2C3C(O)CC4CC(O)CCC4(C)C3CC(O)C12C` (centres unmarked) is reported as 15800 ± 5400 nM (GPBAR1; agonist).
